Published values of several laboratories.
Compare with care: the assays were run in different laboratories. Several values in a cell are separate wells, animals, samples, runs or records.
Cell line: OVCAR-3

O=C(Oc1coc(CSc2ncccn2)cc1=O)c1ccc([N+](=O)[O-])cc1
inhibition (cell migration, Transwell; 30 µM, 7 to 8 h, together with: apelin): 40%

CN1CCN(c2ccc3[nH]c(-c4ccc5[nH]c(-c6ccc(C(F)(F)F)cc6)nc5c4)nc3c2)CC1
growth percent (SRB; 10 µM, 48 h): -17.3%

CCn1cc(-c2cc(Cn3ccnc3)cc3c2CCN([C@H](c2cc(OC)ccn2)C2CC2)C3=O)c(C(F)(F)F)n1
EC50 (cell growth, inhibitor; 120 h): 2.32 µM

CCCCN1CCN(c2ccc3[nH]c(-c4ccc5[nH]c(-c6ccc(C(F)(F)F)cc6)nc5c4)nc3c2)CC1
growth percent (SRB; 10 µM, 48 h): -96.7%

C=CCn1c(=O)c2cnc(Nc3ccc(N4CCN(C)CC4)cc3)nc2n1-c1ccc2c(n1)[C@@](O)(CC)CC2
γH2AX-positive cells (flow cytometry; 1 µM, 24 h): 15%

O=C1NC(=NCc2cccs2)S/C1=C\c1ccc2ncccc2c1
IC50 (MTS; NCI60 panel): > 10 µM

Cc1cc(C)n(-c2nc(-c3ccc(Cl)cc3)c3c(NC(=O)c4ccccc4)nnc-3[nH]2)n1
cell growth (SRB; 10 µM, NCI60 single-dose screen; baseline: untreated): 119%

C#C[C@@]1(O)[C@@H](CO)O[C@@H](n2cc(Cl)c3c(N)ncnc32)[C@@H]1O
TGI (SRB; NCI-60 screen): 1.6 µM and 2.01 µM

CCN(CC)c1ccc(C=NNC(=O)CSc2nc3ccccc3c(=O)n2Cc2ccc(S(N)(=O)=O)cc2)c(O)c1
TGI (NCI five-dose screen): > 100 µM

NNc1nc(-c2ccc(Cl)cc2)c2c(NC(=O)c3ccccc3)nnc-2[nH]1
cell growth (SRB; 10 µM, NCI60 single-dose screen; baseline: untreated): 117%

CCn1cc(-c2cc(Cn3ccoc3=N)cc3c2CCN([C@@H](C)c2cc(OC)ccn2)C3=O)c(C(F)(F)F)n1
EC50 (cell growth, inhibitor; 120 h): 2.27 µM

Cc1cc(=O)[nH]n1-c1nc(-c2ccc(Cl)cc2)c2c(NC(=O)c3ccccc3)nnc-2[nH]1
cell growth (SRB; 10 µM, NCI60 single-dose screen; baseline: untreated): 88.8%

CCCN1CCN(c2ccc3[nH]c(-c4ccc5[nH]c(-c6ccc(OCC)c(OCC)c6)nc5c4)nc3c2)CC1
growth percent (SRB; 10 µM, 48 h): -63.7%

Cc1cc(-c2ccccc2)n(-c2nc(-c3ccc(Cl)cc3)c3c(NC(=O)c4ccccc4)nnc-3[nH]2)n1
cell growth (SRB; 10 µM, NCI60 single-dose screen; baseline: untreated): 83.6%

COc1ccc2c(c1)c(CC(=O)O)c(C)n2C(=O)c1ccc(Cl)cc1
growth inhibition (WST-1; up to 50 µM, 2 days): no effect

O=C(Nc1nnc2n3c(Cc4ccccc4)n[nH]c3nc(-c3ccc(Cl)cc3)c1-2)c1ccccc1
cell growth (SRB; 10 µM, NCI60 single-dose screen; baseline: untreated): 109%

CCCN1CCN(c2ccc3[nH]c(-c4ccc5[nH]c(-c6cc(OC)c(OC)c(OC)c6)nc5c4)nc3c2)CC1
growth percent (SRB; 10 µM, 48 h): 76.9%

Cn1cncc1C1=CN(c2ncnc3[nH]cnc23)CCS1
TGI (ovarian cancer): 120 µM

CCCCN1CCN(c2ccc3[nH]c(-c4ccc5[nH]c(-c6ccc(OCC)cc6)nc5c4)nc3c2)CC1
growth percent (SRB; 10 µM, 48 h): -18%

O=C(c1cc(Cc2n[nH]c(=O)c3ccccc23)ccc1F)N1CCN(C(=O)C2CC2)CC1
IC50: 0.507 µM

C#C[C@@]1(O)[C@@H](CO)O[C@@H](n2cc(Br)c3c(N)ncnc32)[C@@H]1O
TGI (SRB; NCI-60 screen): 4.71 µM and 3.01 µM

CCCN1CCN(c2ccc3[nH]c(-c4ccc5[nH]c(-c6ccc(C(F)(F)F)cc6)nc5c4)nc3c2)CC1
growth percent (SRB; 10 µM, 48 h): -96.9%

A few entries again:
CCn1cc(-c2cc(Cn3ccoc3=N)cc3c2CCN([C@@H](C)c2cc(OC)ccn2)C3=O)c(C(F)(F)F)n1
EC50 (cell growth, inhibitor; 120 h): 2.27 µM

Cc1cc(=O)[nH]n1-c1nc(-c2ccc(Cl)cc2)c2c(NC(=O)c3ccccc3)nnc-2[nH]1
cell growth (SRB; 10 µM, NCI60 single-dose screen; baseline: untreated): 88.8%

CCCN1CCN(c2ccc3[nH]c(-c4ccc5[nH]c(-c6ccc(OCC)c(OCC)c6)nc5c4)nc3c2)CC1
growth percent (SRB; 10 µM, 48 h): -63.7%
